Experimental data of several laboratories.
± gives the spread as reported.
ERBB2: Receptor tyrosine-protein kinase erbB-2 (ERBB2, Homo sapiens, UniProt P04626)
Sequence of UniProt Q01959 (whole entry, unmodified, looked up): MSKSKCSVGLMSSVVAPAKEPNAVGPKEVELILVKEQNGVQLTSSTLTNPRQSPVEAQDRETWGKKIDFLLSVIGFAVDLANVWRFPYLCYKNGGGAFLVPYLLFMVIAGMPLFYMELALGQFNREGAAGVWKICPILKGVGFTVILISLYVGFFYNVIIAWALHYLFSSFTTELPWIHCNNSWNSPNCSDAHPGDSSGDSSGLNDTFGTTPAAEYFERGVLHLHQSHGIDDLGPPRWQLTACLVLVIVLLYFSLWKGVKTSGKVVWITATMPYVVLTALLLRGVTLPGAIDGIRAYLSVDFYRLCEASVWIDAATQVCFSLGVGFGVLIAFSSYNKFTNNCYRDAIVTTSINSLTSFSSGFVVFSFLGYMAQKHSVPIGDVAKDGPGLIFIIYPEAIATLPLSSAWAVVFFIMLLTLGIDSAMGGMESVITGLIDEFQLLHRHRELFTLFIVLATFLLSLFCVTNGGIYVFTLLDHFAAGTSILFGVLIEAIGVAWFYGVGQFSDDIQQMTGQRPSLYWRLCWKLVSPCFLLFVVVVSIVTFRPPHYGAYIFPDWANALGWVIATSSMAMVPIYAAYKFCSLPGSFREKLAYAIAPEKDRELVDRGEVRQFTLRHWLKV
Sequence of UniProt P41143 (whole entry, unmodified, looked up): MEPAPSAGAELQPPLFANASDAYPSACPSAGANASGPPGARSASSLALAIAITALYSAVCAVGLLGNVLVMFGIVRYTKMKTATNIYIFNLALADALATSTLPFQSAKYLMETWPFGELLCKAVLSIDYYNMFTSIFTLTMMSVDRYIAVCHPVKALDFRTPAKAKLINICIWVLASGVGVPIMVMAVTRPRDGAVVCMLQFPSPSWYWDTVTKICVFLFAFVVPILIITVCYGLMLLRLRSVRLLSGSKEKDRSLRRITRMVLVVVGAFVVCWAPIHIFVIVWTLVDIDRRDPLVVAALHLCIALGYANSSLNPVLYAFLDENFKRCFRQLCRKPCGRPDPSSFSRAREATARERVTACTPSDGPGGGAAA
Sequence of UniProt P21554 (whole entry, unmodified, looked up): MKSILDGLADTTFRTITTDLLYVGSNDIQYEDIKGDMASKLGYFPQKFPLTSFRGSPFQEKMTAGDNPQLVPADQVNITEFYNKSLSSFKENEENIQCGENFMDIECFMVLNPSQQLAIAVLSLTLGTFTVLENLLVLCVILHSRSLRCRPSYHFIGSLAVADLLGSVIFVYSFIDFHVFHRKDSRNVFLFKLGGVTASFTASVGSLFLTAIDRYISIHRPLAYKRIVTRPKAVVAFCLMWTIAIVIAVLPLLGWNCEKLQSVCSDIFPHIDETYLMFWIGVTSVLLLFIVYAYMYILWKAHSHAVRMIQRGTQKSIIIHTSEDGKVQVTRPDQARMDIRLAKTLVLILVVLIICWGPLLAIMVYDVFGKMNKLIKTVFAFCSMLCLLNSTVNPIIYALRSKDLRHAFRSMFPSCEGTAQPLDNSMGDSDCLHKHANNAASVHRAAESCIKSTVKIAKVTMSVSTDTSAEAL
Sequence of UniProt P00811 (whole entry, looked up): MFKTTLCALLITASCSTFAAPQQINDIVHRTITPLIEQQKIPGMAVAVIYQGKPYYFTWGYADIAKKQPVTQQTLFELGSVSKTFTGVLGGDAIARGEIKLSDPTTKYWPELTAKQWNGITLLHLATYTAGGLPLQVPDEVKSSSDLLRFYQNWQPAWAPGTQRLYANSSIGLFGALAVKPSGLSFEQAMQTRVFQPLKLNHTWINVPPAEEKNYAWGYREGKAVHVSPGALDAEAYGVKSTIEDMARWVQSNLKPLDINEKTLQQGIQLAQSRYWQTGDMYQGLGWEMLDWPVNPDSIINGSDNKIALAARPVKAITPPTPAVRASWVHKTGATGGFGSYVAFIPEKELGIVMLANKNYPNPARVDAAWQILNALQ
Sequence of UniProt P09619 (whole entry, looked up): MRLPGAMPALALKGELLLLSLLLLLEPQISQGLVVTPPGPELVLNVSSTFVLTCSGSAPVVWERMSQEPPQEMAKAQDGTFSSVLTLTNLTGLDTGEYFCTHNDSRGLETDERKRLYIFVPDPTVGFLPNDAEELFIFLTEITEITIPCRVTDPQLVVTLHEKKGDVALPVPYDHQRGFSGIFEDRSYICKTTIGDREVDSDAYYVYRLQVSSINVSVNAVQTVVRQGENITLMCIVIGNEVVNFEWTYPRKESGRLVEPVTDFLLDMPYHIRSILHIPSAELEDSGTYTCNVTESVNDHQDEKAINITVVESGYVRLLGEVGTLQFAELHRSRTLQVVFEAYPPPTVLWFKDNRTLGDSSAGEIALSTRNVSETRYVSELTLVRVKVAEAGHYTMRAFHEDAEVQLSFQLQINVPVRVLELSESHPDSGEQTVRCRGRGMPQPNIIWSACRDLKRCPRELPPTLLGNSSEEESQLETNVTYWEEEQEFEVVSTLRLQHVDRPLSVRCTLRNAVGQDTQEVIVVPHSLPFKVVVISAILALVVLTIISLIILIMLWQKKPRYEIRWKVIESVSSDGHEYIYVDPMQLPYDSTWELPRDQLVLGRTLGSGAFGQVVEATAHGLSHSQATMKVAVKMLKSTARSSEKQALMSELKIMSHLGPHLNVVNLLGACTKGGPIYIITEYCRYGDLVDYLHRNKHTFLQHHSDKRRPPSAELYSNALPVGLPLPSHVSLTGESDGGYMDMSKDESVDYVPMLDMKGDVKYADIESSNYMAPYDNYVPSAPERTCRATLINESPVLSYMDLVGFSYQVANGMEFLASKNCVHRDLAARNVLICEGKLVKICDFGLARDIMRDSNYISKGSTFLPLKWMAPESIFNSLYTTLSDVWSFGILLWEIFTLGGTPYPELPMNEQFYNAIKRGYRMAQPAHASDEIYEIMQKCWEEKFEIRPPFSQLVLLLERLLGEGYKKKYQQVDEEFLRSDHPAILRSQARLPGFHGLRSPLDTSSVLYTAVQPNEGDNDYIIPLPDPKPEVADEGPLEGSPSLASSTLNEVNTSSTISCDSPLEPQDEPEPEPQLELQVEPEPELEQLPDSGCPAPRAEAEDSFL
Sequence of UniProt Q56UN5 (whole entry, looked up): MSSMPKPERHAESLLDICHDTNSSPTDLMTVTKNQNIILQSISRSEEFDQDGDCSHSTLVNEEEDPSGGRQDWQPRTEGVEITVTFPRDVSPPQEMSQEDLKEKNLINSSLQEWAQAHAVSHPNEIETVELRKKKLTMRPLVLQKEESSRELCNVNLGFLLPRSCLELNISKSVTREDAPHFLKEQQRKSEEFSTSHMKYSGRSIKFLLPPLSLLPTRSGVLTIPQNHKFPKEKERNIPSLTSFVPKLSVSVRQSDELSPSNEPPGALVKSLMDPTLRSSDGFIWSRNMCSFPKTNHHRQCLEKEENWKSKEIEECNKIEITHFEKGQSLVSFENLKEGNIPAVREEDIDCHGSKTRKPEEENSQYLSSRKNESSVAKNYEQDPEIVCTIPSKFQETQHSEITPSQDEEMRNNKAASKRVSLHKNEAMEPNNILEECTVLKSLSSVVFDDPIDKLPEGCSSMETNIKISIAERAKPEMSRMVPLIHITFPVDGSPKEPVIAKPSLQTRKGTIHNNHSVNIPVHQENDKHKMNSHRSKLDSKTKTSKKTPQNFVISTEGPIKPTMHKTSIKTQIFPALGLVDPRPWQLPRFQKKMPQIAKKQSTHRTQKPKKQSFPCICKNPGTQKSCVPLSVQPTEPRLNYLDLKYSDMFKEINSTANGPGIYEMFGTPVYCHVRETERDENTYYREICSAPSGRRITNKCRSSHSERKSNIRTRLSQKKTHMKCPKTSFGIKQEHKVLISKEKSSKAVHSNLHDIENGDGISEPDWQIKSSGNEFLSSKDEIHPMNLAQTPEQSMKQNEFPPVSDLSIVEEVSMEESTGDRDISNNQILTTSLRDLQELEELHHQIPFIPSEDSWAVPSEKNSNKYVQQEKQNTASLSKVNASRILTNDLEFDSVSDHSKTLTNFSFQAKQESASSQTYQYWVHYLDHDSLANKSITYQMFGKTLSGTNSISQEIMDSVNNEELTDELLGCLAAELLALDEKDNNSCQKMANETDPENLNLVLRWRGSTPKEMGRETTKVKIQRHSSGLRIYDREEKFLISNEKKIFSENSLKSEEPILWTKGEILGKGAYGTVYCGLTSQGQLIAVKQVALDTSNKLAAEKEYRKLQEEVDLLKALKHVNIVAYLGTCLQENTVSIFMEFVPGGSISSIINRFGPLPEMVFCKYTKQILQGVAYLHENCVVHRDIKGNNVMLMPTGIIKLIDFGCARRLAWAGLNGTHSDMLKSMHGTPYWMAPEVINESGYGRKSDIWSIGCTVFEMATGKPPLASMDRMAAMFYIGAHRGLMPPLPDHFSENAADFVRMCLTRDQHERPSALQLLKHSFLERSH
Sequence of UniProt P50552 (whole entry, looked up): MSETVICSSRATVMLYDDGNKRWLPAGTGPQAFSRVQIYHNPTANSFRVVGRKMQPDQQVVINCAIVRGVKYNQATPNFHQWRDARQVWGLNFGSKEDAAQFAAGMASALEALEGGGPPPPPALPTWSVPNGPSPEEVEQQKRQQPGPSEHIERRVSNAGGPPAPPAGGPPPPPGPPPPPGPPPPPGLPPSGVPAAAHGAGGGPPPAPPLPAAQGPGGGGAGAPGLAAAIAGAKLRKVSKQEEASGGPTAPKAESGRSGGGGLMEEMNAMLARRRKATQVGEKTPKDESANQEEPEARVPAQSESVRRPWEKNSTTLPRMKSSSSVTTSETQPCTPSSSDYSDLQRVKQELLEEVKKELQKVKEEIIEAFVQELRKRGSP

C#CCN1C(=O)C(CC#C)(C(=O)OCC)Oc2ccccc21 (stereo not shown)  Kd (Dihydroxy-acid dehydratase, chloroplastic (DHAD, Arabidopsis thaliana, UniProt Q9LIR4); binding, microscale thermophoresis; 25 °C): 83.2 µM
C[C@@H](O)[C@H](NC(=O)c1ccc(C#CC#Cc2ccccc2)cc1)C(=O)NCC1(C)NC(=O)NC1=O (stereo partly shown)  Kd (UDP-3-O-acyl-N-acetylglucosamine deacetylase (Pseudomonas aeruginosa, UniProt P47205, C40S); thermal shift): > 100 µM
C=CC[C@H]1OC(=O)CCNC(=O)[C@H](C)N(C)C(=O)[C@H]([C@@H](C)CC)N(C)C(=O)[C@H]([C@@H](C)CC)NC(=O)[C@@H]2[C@@H](C)CCN2C1=O  Kd (Platelet-derived growth factor receptor beta, extracellular domain (PDGFRB, Homo sapiens, UniProt P09619); SPR; 28 °C, extracellular domain immobilised): 8.35 µM
CC(C)(C)C(=O)OCOP(=O)(OCOC(=O)C(C)(C)C)C1CCCN(O)C1=O (stereo not shown)  CC50 (HCT-15): > 100 µM
CC1(C)C(NC(=O)C(=NOC2(C(=O)O)CC2)c2csc(N)n2)C(=O)N1OS(=O)(=O)O (stereo not shown)  Kd (Beta-lactamase SHV-11 (Escherichia coli, UniProt Q7X575); binding, SPR): 45 µM
C=CC1CN(Cc2ccccn2)C(=O)C2CCCC1N2S(=O)(=NC1C=CCCC1)c1cc(Cl)cc(Cl)c1 (mixture of isomers)  Kd (uncharacterized protein, residues 23-253 (Pseudomonas aeruginosa, UniProt Q9HYX8); binding, competitive fluorescence polarization; 30 min, protein 40 nM, added: fluorescent tracer 1 nM): > 40 µM
O=C(N[C@@H]1c2ccccc2C[C@H]1N1CCCC1)c1ccc(-c2ccnc3[nH]ccc23)nc1  Kd (Mitogen-activated protein kinase kinase kinase 19 (MAP3K19, Homo sapiens, UniProt Q56UN5); binding, competition with immobilised ligand): 0.185 µM
Cc1ccc2c(C(C[N+](=O)[O-])c3cccs3)c(-c3ccccc3)[nH]c2c1 (stereo not shown)  EC50 (Cannabinoid receptor 1 (CNR1, Homo sapiens, UniProt P21554, I245A); G protein activation, agonist, BRET): 0.55 µM
O=C(O)CN(c1ccccc1)S(=O)(=O)c1ccccc1  Kd (Beta-lactamase (ampC, Escherichia coli K-12, UniProt P00811)): 5200 µM
CCCC[C@H](NC(=O)[C@H](CCC(=O)O)NC(=O)[C@H](CCCCN)NC(=O)[C@H](CO)NC(=O)[C@H](Cc1ccccc1)NC(C)=O)C(=O)N[C@@H](CCCNC(=N)N)C(=O)N[C@@H](CC(N)=O)C(=O)N[C@@H](CCCNC(=N)N)C(=O)N[C@@H](Cc1ccncc1)C(=O)N[C@@H](Cc1c[nH]c2ccccc12)C(=O)N[C@@H](CCCC(=O)NCCN(CC(=O)NCCN(CC(=O)NCCN(CC(=O)NCCN(CC(N)=O)C(=O)Cn1cnc2c(=O)[nH]c(N)nc21)C(=O)Cn1ccc(N)nc1=O)C(=O)Cn1ccc(N)nc1=O)C(=O)Cn1cnc2c(=O)[nH]c(N)nc21)C(=O)N[C@@H](CS)C(=O)N[C@@H](C)C(=O)N[C@@H](CC(C)C)C(=O)N[C@@H](CC(=O)O)C(=O)N1CCC[C@H]1C(=O)N[C@@H](CC(N)=O)C(=O)N[C@@H](CC(C)C)C(=O)N[C@H](C(=O)N[C@@H](CC(N)=O)C(=O)N[C@@H](CCC(N)=O)C(=O)N[C@@H](CCC(N)=O)C(=O)N[C@@H](CCCCN)C(=O)N[C@@H](CCCNC(=N)N)C(=O)N[C@@H](C)C(=O)N[C@@H](CCCCNC(=O)CN(CCNC(=O)CN(CCNC(=O)CN(CCNC(=O)CN(CCNC(=O)[C@H](CCCNC(=N)N)NC(C)=O)C(=O)Cn1ccc(N)nc1=O)C(=O)Cn1cnc2c(=O)[nH]c(N)nc21)C(=O)Cn1cnc2c(=O)[nH]c(N)nc21)C(=O)Cn1ccc(N)nc1=O)C(=O)N[C@H](C(=O)N[C@@H](CCCNC(=N)N)C(=O)N[C@@H](CO)C(=O)N[C@H](C(=O)N[C@@H](Cc1ccc(O)cc1)C(=O)N[C@@H](CCC(=O)O)C(=O)N[C@@H](CCC(=O)O)C(=O)NCC(=O)N[C@@H](CCC(=O)O)C(N)=O)[C@@H](C)CC)[C@@H](C)CC)[C@@H](C)O  Kd (ERBB2; binding, SPR): 0.017 µM
CC(=O)N[C@@H](CO)C(=O)N[C@@H](Cc1ccccc1)C(=O)N[C@@H](CCC(=O)O)C(=O)N[C@@H](Cc1ccccc1Cl)C(=O)N1CCC[C@]12C=C[C@@H]1CC[C@@H](C(=O)N3CC[C@@H]4C=C[C@H]5CC[C@@H](C(=O)N[C@H](C(=O)N[C@@H](CCC(=O)O)C(=O)N[C@@H](CC(=O)O)C(=O)N[C@@H](CCC(=O)O)C(=O)N[C@@H](CC(C)C)C(N)=O)[C@@H](C)O)N5C(=O)[C@H]43)N1C2=O  Kd (Vasodilator-stimulated phosphoprotein (VASP, Homo sapiens, UniProt P50552); binding, ITC): 0.56 µM
CC[C@@H](C)[C@@H](NC(=O)[C@@H](CCC(N)=O)NC(=O)[C@H](NC(=O)[C@H]1CCCN1C(=O)[C@H](NC(=O)[C@@H](CO)NC(=O)[C@@H](Cc1ccccc1)NC(=O)[C@H]1CCCN1C(=O)[C@@H](CCC(N)=O)NC(=O)[C@H](N)CCSC)[C@H](C)CC)C(C)C)C(=O)N[C@@H](C(=O)N[C@H](CC(C)C)C(=O)N[C@H](CCC(N)=O)C(=O)NCC(=O)N[C@H](CO)C(=O)N[C@H](CCCNC(=N)N)C(=O)N[C@H](CCCNC(=N)N)C(=O)N[C@H](CCCNC(=N)N)C(=O)N[C@H](CCC(N)=O)C(=O)NCC(=O)N[C@H](CCCNC(=N)N)C(N)=O)[C@H](C)O  Kd (Kcnma1 (Mus musculus, UniProt Q08460); ion current, blocker, inside-out patch clamp; Xenopus oocytes; +80 mV, added: 10 µM cytosolic Ca2+): 4.7 µM
CCC[C@@H](C(=O)c1ccccc1)N1CCCC1  Ki (Sodium-dependent dopamine transporter (SLC6A3, Homo sapiens, UniProt Q01959); dopamine uptake, inhibitor; HEK293 transiently transfected; DAT S149A mutant, added: [3H]dopamine): 0.012 µM
CC[C@H](C)[C@H](NC(=O)[C@H](CCCCNC(=O)CN(CCNC(=O)CN(CCNC(=O)CN(CCNC(=O)CN(CCNC(=O)[C@H](CCCNC(=N)N)NC(C)=O)C(=O)Cn1ccc(N)nc1=O)C(=O)Cn1cnc2c(=O)[nH]c(N)nc21)C(=O)Cn1cnc2c(=O)[nH]c(N)nc21)C(=O)Cn1ccc(N)nc1=O)NC(=O)[C@H](C)NC(=O)[C@H](CCCNC(=N)N)NC(=O)[C@H](CCCCN)NC(=O)[C@H](CCC(N)=O)NC(=O)[C@H](CCC(N)=O)NC(=O)[C@H](CC(N)=O)NC(=O)[C@@H](NC(=O)[C@H](CC(C)C)NC(=O)[C@H](CC(N)=O)NC(=O)[C@@H]1CCCN1C(=O)[C@H](CC(=O)O)NC(=O)[C@H](CC(C)C)NC(=O)[C@H](C)NC(=O)[C@H](C)NC(=O)[C@H](CCCC(=O)NCCN(CC(=O)NCCN(CC(=O)NCCN(CC(=O)NCCN(CC(=O)N[C@@H](CCCNC(=N)N)C(N)=O)C(=O)Cn1cnc2c(=O)[nH]c(N)nc21)C(=O)Cn1ccc(N)nc1=O)C(=O)Cn1ccc(N)nc1=O)C(=O)Cn1cnc2c(=O)[nH]c(N)nc21)NC(=O)[C@H](Cc1c[nH]c2ccccc12)NC(=O)[C@H](Cc1ccc(O)cc1)NC(=O)[C@H](CCCNC(=N)N)NC(=O)[C@H](CC(N)=O)NC(=O)[C@H](CCCNC(=N)N)NC(=O)[C@H](CCSC)NC(=O)[C@H](CCC(=O)O)NC(=O)[C@H](CCCCN)NC(=O)[C@H](CO)NC(=O)[C@H](Cc1ccccc1)NC(C)=O)[C@@H](C)O)C(=O)N[C@@H](CCCNC(=N)N)C(=O)N[C@@H](CO)C(=O)N[C@H](C(=O)N[C@@H](Cc1ccc(O)cc1)C(=O)N[C@@H](CCC(=O)O)C(=O)N[C@@H](CCC(=O)O)C(=O)NCC(=O)N[C@@H](CCC(=O)O)C(N)=O)[C@@H](C)CC  Kd (ERBB2; binding, SPR): 0.0047 µM
O=C1NC2(CC2)COc2ncc(F)cc2[C@H]2COCCN2c2ccn3ncc1c3n2  organ-to-body weight ratio (Sprague-Dawley rat, female, brain; oral, 2.5 mg/kg/day, 4 weeks dosing, end of recovery): 0.658 ± 0.031%
CCN(CC)C(=O)c1ccc(C(c2cccc(O)c2)N2CC(C)N(Cc3ccccc3)CC2C)cc1 (stereo not shown)  EC50 (Delta-type opioid receptor (OPRD1, Homo sapiens, UniProt P41143, N90S); receptor activation, agonist): 0.02 ± 0.0119 µM

Excerpt of the above:
CCCC[C@H](NC(=O)[C@H](CCC(=O)O)NC(=O)[C@H](CCCCN)NC(=O)[C@H](CO)NC(=O)[C@H](Cc1ccccc1)NC(C)=O)C(=O)N[C@@H](CCCNC(=N)N)C(=O)N[C@@H](CC(N)=O)C(=O)N[C@@H](CCCNC(=N)N)C(=O)N[C@@H](Cc1ccncc1)C(=O)N[C@@H](Cc1c[nH]c2ccccc12)C(=O)N[C@@H](CCCC(=O)NCCN(CC(=O)NCCN(CC(=O)NCCN(CC(=O)NCCN(CC(N)=O)C(=O)Cn1cnc2c(=O)[nH]c(N)nc21)C(=O)Cn1ccc(N)nc1=O)C(=O)Cn1ccc(N)nc1=O)C(=O)Cn1cnc2c(=O)[nH]c(N)nc21)C(=O)N[C@@H](CS)C(=O)N[C@@H](C)C(=O)N[C@@H](CC(C)C)C(=O)N[C@@H](CC(=O)O)C(=O)N1CCC[C@H]1C(=O)N[C@@H](CC(N)=O)C(=O)N[C@@H](CC(C)C)C(=O)N[C@H](C(=O)N[C@@H](CC(N)=O)C(=O)N[C@@H](CCC(N)=O)C(=O)N[C@@H](CCC(N)=O)C(=O)N[C@@H](CCCCN)C(=O)N[C@@H](CCCNC(=N)N)C(=O)N[C@@H](C)C(=O)N[C@@H](CCCCNC(=O)CN(CCNC(=O)CN(CCNC(=O)CN(CCNC(=O)CN(CCNC(=O)[C@H](CCCNC(=N)N)NC(C)=O)C(=O)Cn1ccc(N)nc1=O)C(=O)Cn1cnc2c(=O)[nH]c(N)nc21)C(=O)Cn1cnc2c(=O)[nH]c(N)nc21)C(=O)Cn1ccc(N)nc1=O)C(=O)N[C@H](C(=O)N[C@@H](CCCNC(=N)N)C(=O)N[C@@H](CO)C(=O)N[C@H](C(=O)N[C@@H](Cc1ccc(O)cc1)C(=O)N[C@@H](CCC(=O)O)C(=O)N[C@@H](CCC(=O)O)C(=O)NCC(=O)N[C@@H](CCC(=O)O)C(N)=O)[C@@H](C)CC)[C@@H](C)CC)[C@@H](C)O  Kd (ERBB2; binding, SPR): 0.017 µM
O=C1NC2(CC2)COc2ncc(F)cc2[C@H]2COCCN2c2ccn3ncc1c3n2  organ-to-body weight ratio (Sprague-Dawley rat, female, brain; oral, 2.5 mg/kg/day, 4 weeks dosing, end of recovery): 0.658 ± 0.031%
CC(=O)N[C@@H](CO)C(=O)N[C@@H](Cc1ccccc1)C(=O)N[C@@H](CCC(=O)O)C(=O)N[C@@H](Cc1ccccc1Cl)C(=O)N1CCC[C@]12C=C[C@@H]1CC[C@@H](C(=O)N3CC[C@@H]4C=C[C@H]5CC[C@@H](C(=O)N[C@H](C(=O)N[C@@H](CCC(=O)O)C(=O)N[C@@H](CC(=O)O)C(=O)N[C@@H](CCC(=O)O)C(=O)N[C@@H](CC(C)C)C(N)=O)[C@@H](C)O)N5C(=O)[C@H]43)N1C2=O  Kd (Vasodilator-stimulated phosphoprotein (VASP, Homo sapiens, UniProt P50552); binding, ITC): 0.56 µM
